Results pooled from the literature.
Parts stem from different laboratories: compare values within a part only. Changes are numbered by the printed parent chain.

Series 1
Target: Ras GTPase-activating protein-binding protein 1, full length (G3BP1, Homo sapiens, UniProt Q13283)
Chain of UniProt Q13283 (whole entry, looked up): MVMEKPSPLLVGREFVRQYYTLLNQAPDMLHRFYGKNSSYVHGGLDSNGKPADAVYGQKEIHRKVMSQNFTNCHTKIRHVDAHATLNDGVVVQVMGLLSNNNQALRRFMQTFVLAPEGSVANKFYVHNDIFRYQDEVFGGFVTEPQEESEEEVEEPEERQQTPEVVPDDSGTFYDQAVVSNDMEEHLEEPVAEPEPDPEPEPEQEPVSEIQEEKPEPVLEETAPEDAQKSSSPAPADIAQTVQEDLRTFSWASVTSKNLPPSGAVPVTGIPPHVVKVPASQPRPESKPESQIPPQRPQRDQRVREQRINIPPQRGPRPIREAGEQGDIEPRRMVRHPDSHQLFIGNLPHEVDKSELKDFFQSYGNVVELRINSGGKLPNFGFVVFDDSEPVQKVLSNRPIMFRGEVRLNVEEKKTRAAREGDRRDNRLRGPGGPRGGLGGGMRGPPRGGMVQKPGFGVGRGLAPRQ
Method: RNA Bind-n-Seq
Molecule type: RNA
Sample: in vitro
Tested at: 200 nM
Notes: whole 134-nt RNA, ends assumed
Together with: 150 mM LiCl
Relative to: input library
Direction: higher = stronger binding
Library: 7-deaza-guanosine replaces G
All sequences stand within: GGGAGUUCUACAGUCCGACGAUC … UGGAAUUCUCGGGUGUCAAGG
Strand	log2 enrichment
ACCAUGCAGGUGGGCAUCUUUAGGAAGUGGGGCAAGGGGGGGAUAGGGAGGGGGGUAACACUUUGGGAACAGGUGGUCCCAGGUCGUUUC	0.304
AAGUCCUGUGCUACACAUCGUAUGUACCGAAUCGGAAAAGGAAAAGGGAAAAGGGGAAAGUAUUAUGUUACGCCGUUCGGAUCUGCACUU	-0.247
CCUGUGCUACACAUCGUAUGUACCGAAUCGGGGAAAAAAAGGGGAAAGGGGAAAAAGGGGAAAGUAUUAUGUUACGCCGUUCGGAUCUGC	0.835
AAGUCCUGUGCUACACAUCGUAUGUACCGAAUCGGGUUUUUGGGUGGGAAAAAGGGAAAGUAUUAUGUUACGCCGUUCGGAUCUGCACUU	-0.175
CUCAAGUCCUGUGCUACACAUCGUAUGUACCGAAUCGGUUGGUUGGGGUUGGGAAAGUAUUAUGUUACGCCGUUCGGAUCUGCACUUCCA	0.452
CAAGUCCUGUGCUACACAUCGUAUGUACCGAAUCGGGUUUGGGUUUGGGUUUGGGGAAAGUAUUAUGUUACGCCGUUCGGAUCUGCACUU	-0.637
CUCAAGUCCUGUGCUACACAUCGUAUGUACCGAAUCGGUUUGGUGGAAAAAGGAAAGUAUUAUGUUACGCCGUUCGGAUCUGCACUUCCA	0.0216
GCAAGAAGUAAAAACAAAUGGAAAUGCUUCGGAUAGUGGCAGGGGUGGGGGUUGCUAAGGAAAGGGUGGGAUGGGAGUGGGUAAAGAGUU	-0.337
UAACUUUAGAGGAGGAUCUGAUGGAUAAGGCAGUGGACGUGGAUUUGGGGAUGGCUAUAAUGGGUAUGGAGGAGGACCUGGAGGUGGCAA	-0.275
CCAACUCCUAUAAUUCCCUAUCUUUUAGUUUUAGUUGCAGAAACAUUUUGUGGUCAUUAAGCAUUGGGUGGGUAAAUUCAACCACUGUAA	0.985
UGGAAGGUGGAUUUUGUUUAUUUUUUUAGCUCAUUUCCAGGGGUGGGAAUUUUUUUUUAAUAUGUGUCAUGAAUAAAGUUGUUUUUGAAA	-0.407

Series 2
Target: RNA binding protein fox-1 homolog 2, RRM domain, GST-SBP tag (RBFOX2, Homo sapiens, UniProt O43251-10, residues 100-194)
Method: RNA Bind-n-Seq
Molecule type: RNA
Sample: in vitro
Tested at: 365 nM
Notes: natural RNA segment, single round, ends assumed
Relative to: no-protein control
Direction: higher = stronger binding
All sequences stand within: GGGAGUUCUACAGUCCGACGAUC … UGGAAUUCUCGGGUGCCAA
Residues (chain): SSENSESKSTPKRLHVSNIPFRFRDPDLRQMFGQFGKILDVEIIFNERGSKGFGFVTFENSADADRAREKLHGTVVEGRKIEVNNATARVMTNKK
Strand	RBNS enrichment (R)
ACAUCCUCACUUUUAUUAUAAAUGGGUGUUUUUUCAUAAUUUUUACUGACGCUCAGUAACCAUGCAAAAUUGUGUAUAGCAUUAAUGUAUCUACAUACCUACACCUAUCU	0.99
CAGUGGGCAGACGCCUGGGCACCCCUUGGGCCCUGCCCAGCAUGGCCAUGGCGCAGGCUCUCGAACCCGCAUGGCUUUCCCAGGCCUGGUGAUUCUGCUCUCCAGGGACG	2.79
AAGCUAACUCUUAUUUUUCAGGGGGCACAUGUUUUGUUUUGUUAUGUUUUGUUGUACAAUGAAGGAUGAACCCAAUGCUAAAAAGUCAGUUAUUUUCUUGGUUUUCCAUU	1.24
ACUCUGUCUCCUUGGCUGGAGUGUGGUGGCACAGUCUCAGCUCACUGCAACCUCUGCCUCCCAGUUCAAGCAAUUCUUCUGCCUCAGCCUCCCAAGUAGCUGGGAUUACA	0.328
CAAGUAAUAUUGCUCCUUUAAAAGGUGUGUUUUUAUUUCUGGUGAUGUCAGGGGCAACGGGGUAUCUUAGAAGCCUUAAAUGAGAGCUAAUAUAAUCCAGACAGCAAUGG	0.317
CAUCUUAUUUAAAGGGAUACUUUUGUAAAAGUGAAACCUUGUAUAAAGAAAGAGCAGCCUUUGUUAAUUUACUGUGGAGUUACAACCCGCAUGCUCCCUACUCCCCCACG	1.55
GGUUCUGUGCUAGCUGAUGCAAGGACAUUAGCUCCAAAGGCUGGGGAGGGCUUGGCUCUCCCUCUGUGUCUUCCUGGUGUCCCGCCCUGGCCAGCUCUCGUCUGCUCUCG	0.224
AAGAAAUAUGUUUAUUUUGGGCAAAGAUUUGCUUAUUGGCCUGGGAUUGCACAUUUUCUCUAUGAUGUUUGCAACAGAGAAAUUUUCAUUUUAAUGAUACUCUUCCUUUC	0.957
UCCUUUCUUUAAACUAUAGGUAAUUAAGGCAGCUGAAAAGUAAAUUGCCUUCUAGACACUGAAGGCAAAUCUCCUUUGUCCAUUUACCUGGAAACCAGAAUGAUUUUGAC	0.405
CUUUUUGUAUAGAAAGCACUACCCUAAGCCAUGAAGAACUCCAUGCUUUGCUAACCAAGAUAACUGUUUUCUCUUUGUAGAAGUUUUGUUUUUGAAAUGUGUAUUUCUAA	0.575
CCACCGAUCUACAAGGGUUGAUCCCUGUUUUUACCAUCAAUCAUCACCCUGUGGUGCAACACUUGAAAGACCCGGCUAGAGGCACUAUGGACUUCAGGAUCCACUAGACA	0.254
GAUGCCCAGCCCAGCAGCAUGCUUUGUACACUGAUAUAUUGGGUAAAUUUUGUUGAAUAAAUUAAGCUCAACUAUUUGUAUUUCAAUAGUUGAGUUGUAUUGCUUCCUGU	3.15

Series 3
Target: RING finger protein unkempt homolog, zinc fingers 1-6, GST-SBP tag (UNK, Homo sapiens, UniProt Q9C0B0, residues 30-357)
Method: RNA Bind-n-Seq
Molecule type: RNA
Sample: in vitro
Tested at: not given
Notes: RNA with constant flanks, human and mouse sites, ends assumed
Relative to: input RNA pool
Direction: higher = stronger binding
All sequences stand within: GGGAGUUCUACAGUCCGACGAUC … CAACAGAGGAUUGAGCAUCA
Target sequence (chain): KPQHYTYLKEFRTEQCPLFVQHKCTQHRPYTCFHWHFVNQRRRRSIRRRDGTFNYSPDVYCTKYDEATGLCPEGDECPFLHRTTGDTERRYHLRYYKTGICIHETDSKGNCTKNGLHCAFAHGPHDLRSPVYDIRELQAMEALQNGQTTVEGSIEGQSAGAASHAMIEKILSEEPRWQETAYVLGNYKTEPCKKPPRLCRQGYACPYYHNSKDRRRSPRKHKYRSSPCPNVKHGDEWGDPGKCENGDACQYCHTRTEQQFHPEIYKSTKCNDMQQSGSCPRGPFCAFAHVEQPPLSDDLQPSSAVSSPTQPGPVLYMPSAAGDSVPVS
Strand	bound/input enrichment
CAAAGUGUGCCAGAAUGUGAACAACACUGCGAAGAUAAAGAAGAGCCUUCAUUUUCAGAAGUAGAAGAACUGUUUCUUCAGACUACUUUUGACAAGAUGGAUUUUUUAACUACUGUCAAA	0.0736 ratio
AAAAAACCCCGAUUUUAGAUAUUUAGGCUUUCAUUCUAGUUUGGUUUUGUCUUUUCUUGUUUAGAUACCACUUAAAUUCUUGGCAUUUUAGUAAGCAAGCUACCUUUUUAUGGAUGUUAG	15 ratio
GUGAUGUCAAAGAGAACUAUCUUGAAACAUUUAUUUCCAGUCCAAAAUGGAGCUUUAUAUUGUGUUUGUCAUAAAUCUACGUAUUCUCCUCUACCAGAUGACUAUAAUUGCAACGUAGAG	0.401 ratio
CUCUUCAAGAGCAUCUGGAACAACAGAUGGCUGCGCACCAUCUCUGUGAUUCUCUUCCUCAACAAGCAAGACCUGCUUGCUGAGAAAGUCCUCGCUGGCAAAUCGAAGAUUGAGGACUAC	0.147 ratio
UGCUGGAACGCAGCAGGAGACAAAGUUGGAGCCAGUGCUUCGGACGGUUCAGUUUGUGUCUUAGACCUUCGGAAAUAGCGUUACUAGUUGGAAGCCAUGGACCGACUAUGAAUGUGUACA	0.401 ratio
UGUUUCUUUCUUGAAAGAAGUGGAGUCUCCUUAUGAAGUCCAUGACUAUACCAGGGCCUAUUUAGGAGAUACUUCCGAGGCCAAGGAGUUUGCCAAGCAGUUCCUUGAACGCCGUGCCAA	0.103 ratio
GACAUUACCACUAUUAAACUUCUCAAUGAAACUAGAGACAUGUUGGAAAGCCCAGAUUUUAGUACAGUUUUGAAUACCUGUUUAAACCGAGGUUUUAGUAGACUUCUAGACAAUAUGGCU	11.6 ratio
AGGCACUAUCUCAUUCAUACUGGUCAAAAGCCAUUUGAAUGUGAUGUGUGUCAUAAAACCUUUAGACAACUAGUUCAUCUGGAGAGGCAUCAACUAACUCAUAGUCUGCCUUUUAAAUGU	0.318 ratio
AUGCCAGAUGAUGAAGGUGAAGGUGAAUUGUGUUGGAAAAAAGUAGACUUAGGGGACGUGAAGAAUGUGGAUGUCUUAUCUUUCAGUCAUGCUCCUUCAUUCAAUUUUCUUUCUAAUUCA	0.172 ratio
ACCAGCUAUGGUCUGCCACAAGCCAGGAGGAUAUCAUUGGCCACUCCUCGACAGCUUUAUAAAUCUUCCAAUAUGACUCAGCGCUGGCAAAGAAGGGAAAUUUCAAACUUCGAAUAUUUG	0.275 ratio
GAGGUUACCGUGGAAACAGACAAGAAAACUCAUUAUGGGCUACUCUUUGAUGAAUUUCAAGGCCUUUCACAUCUAGAAGCUCUGGAGAUGCUUUCCCAAGAAAGUGAAAUAAAGGUGAAA	0.336 ratio

Series 4
Target: CCNE1, cyclin fold, Cln2 fusion (human)
Method: yeast growth competition, sequencing
Sample: yeast
Notes: strong parent motif
Relative to: not given
Direction: higher = stronger binding
Starting sequence: SCAPER docking peptide (human); SNARRSLNFGGST
Substitution	normalised enrichment score
SNCRRSLNFGGST [A3C]	0.476
SEARRSLNFGGST [N2E]	0.303
SNARRSLSFGGST [N8S]	1.85
SNARRSLAFGGST [N8A]	0.222
SNARRSLNFGGSR [T13R]	1.14
SNDRRSLNFGGST [A3D]	-0.0657
SNARRYLNFGGST [S6Y]	1.67
SHARRSLNFGGST [N2H]	0.812
SNARRSLNFGGAT [S12A]	1.38
SNARTSLNFGGST [R5T]	0.278
SNFRRSLNFGGST [A3F]	0.998
SNAGRSLNFGGST [R4G]	0.354
SNARRSLNFCGST [G10C]	0.492
SNARRSLMFGGST [N8M]	0.505
SNARRSLNFGGSA [T13A]	0.505
SNARRNLNFGGST [S6N]	0.73
SNARRSLNFGAST [G11A]	1.06
STARRSLNFGGST [N2T]	1.13
SNARRSGNFGGST [L7G]	-0.597
SNARRSLNFGGSV [T13V]	1.56
SNARRSLLFGGST [N8L]	-0.0582
SNARRSLVFGGST [N8V]	0.379
SNARRSLNFGGSD [T13D]	2.15
SNACRSLNFGGST [R4C]	0.543
SNARRFLNFGGST [S6F]	2.14

Excerpt of the above (series 4):
Substitution	normalised enrichment score
SNFRRSLNFGGST [A3F]	0.998
SNAGRSLNFGGST [R4G]	0.354
SNARRSLNFCGST [G10C]	0.492
SNARRSLMFGGST [N8M]	0.505
SNARRSLNFGGSA [T13A]	0.505
SNARRNLNFGGST [S6N]	0.73
SNARRSLNFGAST [G11A]	1.06
STARRSLNFGGST [N2T]	1.13
